# Published values collected from several papers.
# Each line is one published result; not all experiments were run side by side. Several values in a cell are separate wells, animals, samples, runs or records. ± gives the spread as reported.
# AKR1C2: Aldo-keto reductase family 1 member C2 (AKR1C2, Homo sapiens, UniProt P52895)
# Sequence of UniProt P52895 (whole entry, looked up): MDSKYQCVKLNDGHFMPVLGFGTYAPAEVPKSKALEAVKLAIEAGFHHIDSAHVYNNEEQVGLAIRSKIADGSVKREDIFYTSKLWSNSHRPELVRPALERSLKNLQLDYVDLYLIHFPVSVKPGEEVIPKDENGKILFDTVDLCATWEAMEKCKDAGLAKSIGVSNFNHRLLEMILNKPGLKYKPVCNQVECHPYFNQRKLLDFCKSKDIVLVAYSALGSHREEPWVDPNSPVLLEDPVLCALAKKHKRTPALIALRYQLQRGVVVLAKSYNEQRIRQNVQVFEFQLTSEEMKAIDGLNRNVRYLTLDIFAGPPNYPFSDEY
# Oprk1: Kappa-type opioid receptor (Oprk1, Rattus norvegicus, UniProt P34975)
# Sequence of UniProt P34975 (whole entry, looked up): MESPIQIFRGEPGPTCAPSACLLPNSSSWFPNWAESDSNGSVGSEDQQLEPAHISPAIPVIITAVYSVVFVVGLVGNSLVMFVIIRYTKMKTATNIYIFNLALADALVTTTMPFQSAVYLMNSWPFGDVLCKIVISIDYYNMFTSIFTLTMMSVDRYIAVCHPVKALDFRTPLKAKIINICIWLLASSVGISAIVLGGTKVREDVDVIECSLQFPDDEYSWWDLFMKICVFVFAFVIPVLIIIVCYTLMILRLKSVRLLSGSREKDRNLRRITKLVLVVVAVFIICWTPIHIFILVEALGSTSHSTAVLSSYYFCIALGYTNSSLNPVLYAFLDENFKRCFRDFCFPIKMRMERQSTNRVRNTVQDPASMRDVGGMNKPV
# ache: Acetylcholinesterase (ache, Electrophorus electricus, UniProt O42275)
# Sequence of UniProt O42275 (whole entry, looked up): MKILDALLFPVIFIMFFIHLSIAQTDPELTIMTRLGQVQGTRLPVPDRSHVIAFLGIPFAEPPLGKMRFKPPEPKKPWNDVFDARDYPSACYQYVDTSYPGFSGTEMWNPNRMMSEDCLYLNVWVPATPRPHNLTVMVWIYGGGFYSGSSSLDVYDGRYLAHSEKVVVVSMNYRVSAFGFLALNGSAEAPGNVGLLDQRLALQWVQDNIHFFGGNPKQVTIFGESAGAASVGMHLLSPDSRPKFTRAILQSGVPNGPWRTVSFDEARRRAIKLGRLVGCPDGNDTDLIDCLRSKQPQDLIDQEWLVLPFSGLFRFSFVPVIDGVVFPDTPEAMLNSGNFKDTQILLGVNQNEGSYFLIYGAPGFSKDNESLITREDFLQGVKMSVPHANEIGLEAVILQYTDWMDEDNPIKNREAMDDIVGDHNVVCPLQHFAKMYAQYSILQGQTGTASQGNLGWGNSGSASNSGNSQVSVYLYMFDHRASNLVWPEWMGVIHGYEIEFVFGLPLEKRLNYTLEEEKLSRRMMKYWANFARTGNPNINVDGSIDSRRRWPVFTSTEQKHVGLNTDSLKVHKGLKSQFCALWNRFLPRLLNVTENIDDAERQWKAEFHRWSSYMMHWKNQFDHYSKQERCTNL
# Tripartite terminase subunit 3 C-terminal nuclease domain: Tripartite terminase subunit 3, C-terminal nuclease domain (Human betaherpesvirus 5, UniProt P16732)
# Sequence of UniProt P16732 (whole entry, looked up): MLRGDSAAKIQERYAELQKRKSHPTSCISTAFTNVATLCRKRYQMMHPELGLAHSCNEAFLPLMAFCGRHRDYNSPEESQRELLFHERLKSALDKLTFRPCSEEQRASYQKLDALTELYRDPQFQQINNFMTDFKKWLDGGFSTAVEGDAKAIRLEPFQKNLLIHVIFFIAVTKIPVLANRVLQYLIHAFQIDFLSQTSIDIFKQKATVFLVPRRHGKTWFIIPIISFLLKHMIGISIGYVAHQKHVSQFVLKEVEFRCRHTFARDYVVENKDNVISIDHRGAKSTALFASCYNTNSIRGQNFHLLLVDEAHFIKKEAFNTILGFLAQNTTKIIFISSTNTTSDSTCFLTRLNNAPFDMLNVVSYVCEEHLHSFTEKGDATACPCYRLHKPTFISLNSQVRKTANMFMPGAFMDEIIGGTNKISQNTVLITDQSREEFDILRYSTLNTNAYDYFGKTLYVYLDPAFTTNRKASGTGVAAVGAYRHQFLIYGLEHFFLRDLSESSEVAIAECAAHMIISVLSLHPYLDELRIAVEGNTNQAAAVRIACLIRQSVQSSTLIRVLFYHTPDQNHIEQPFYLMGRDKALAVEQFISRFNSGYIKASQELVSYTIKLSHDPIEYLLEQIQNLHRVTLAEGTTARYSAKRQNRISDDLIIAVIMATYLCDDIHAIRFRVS
# Sequence of UniProt Q9H7Z6 (whole entry, looked up): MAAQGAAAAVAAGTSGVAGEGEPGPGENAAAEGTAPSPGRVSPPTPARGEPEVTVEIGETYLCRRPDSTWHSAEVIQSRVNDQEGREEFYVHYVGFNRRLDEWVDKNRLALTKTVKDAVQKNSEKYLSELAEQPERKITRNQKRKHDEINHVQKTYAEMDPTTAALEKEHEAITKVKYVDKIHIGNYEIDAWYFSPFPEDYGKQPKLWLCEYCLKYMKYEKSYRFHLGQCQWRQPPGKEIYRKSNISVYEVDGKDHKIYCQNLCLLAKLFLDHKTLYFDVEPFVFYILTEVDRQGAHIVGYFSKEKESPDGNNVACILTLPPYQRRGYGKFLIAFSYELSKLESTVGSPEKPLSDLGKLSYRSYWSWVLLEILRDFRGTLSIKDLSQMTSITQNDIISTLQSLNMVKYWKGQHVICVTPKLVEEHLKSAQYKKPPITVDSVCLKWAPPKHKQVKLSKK
# Sequence of UniProt Q93009 (whole entry, looked up): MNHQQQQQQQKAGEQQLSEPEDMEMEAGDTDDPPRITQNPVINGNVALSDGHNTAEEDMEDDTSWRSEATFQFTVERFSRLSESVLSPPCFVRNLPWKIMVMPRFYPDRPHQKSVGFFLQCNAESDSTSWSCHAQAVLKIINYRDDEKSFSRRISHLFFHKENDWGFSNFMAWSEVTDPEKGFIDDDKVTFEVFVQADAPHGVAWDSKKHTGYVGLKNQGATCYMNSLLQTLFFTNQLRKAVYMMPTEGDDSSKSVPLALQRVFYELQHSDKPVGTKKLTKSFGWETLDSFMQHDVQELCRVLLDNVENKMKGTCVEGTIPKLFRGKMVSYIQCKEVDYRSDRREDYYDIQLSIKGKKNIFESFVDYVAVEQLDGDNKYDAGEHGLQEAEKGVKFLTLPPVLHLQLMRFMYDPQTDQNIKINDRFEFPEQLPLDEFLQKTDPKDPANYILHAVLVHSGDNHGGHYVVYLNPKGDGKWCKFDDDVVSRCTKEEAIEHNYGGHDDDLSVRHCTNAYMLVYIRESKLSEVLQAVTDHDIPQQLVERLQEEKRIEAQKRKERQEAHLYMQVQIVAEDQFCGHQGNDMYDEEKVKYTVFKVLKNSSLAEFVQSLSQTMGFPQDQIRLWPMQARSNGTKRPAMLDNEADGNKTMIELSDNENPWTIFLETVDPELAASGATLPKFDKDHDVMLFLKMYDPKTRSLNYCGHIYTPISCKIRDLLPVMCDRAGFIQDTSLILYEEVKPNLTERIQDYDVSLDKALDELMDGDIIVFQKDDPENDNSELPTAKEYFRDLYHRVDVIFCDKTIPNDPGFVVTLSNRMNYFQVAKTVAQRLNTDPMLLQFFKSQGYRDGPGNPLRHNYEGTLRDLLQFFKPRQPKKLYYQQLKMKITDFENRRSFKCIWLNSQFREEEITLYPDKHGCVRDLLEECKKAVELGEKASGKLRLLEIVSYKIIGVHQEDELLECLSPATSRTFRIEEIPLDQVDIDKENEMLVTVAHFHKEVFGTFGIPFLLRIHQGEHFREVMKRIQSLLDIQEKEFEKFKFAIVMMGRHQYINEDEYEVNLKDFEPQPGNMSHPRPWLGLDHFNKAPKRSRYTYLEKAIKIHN
# Sequence of UniProt P00690 (whole entry, looked up): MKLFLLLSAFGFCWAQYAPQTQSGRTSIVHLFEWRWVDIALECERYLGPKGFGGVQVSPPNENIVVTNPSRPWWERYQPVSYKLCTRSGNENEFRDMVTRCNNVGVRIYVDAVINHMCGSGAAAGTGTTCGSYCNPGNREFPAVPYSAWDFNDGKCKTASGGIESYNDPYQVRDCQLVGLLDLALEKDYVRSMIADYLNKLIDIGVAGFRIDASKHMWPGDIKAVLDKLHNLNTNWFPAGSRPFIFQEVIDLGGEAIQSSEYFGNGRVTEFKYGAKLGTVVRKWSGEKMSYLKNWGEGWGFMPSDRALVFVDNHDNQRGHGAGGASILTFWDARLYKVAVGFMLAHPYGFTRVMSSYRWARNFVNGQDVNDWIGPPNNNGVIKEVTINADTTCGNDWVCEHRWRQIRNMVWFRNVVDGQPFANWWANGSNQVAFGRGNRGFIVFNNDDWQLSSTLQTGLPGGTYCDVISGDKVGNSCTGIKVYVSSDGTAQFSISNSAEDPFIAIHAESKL
# Sequence of UniProt Q04828 (whole entry, looked up): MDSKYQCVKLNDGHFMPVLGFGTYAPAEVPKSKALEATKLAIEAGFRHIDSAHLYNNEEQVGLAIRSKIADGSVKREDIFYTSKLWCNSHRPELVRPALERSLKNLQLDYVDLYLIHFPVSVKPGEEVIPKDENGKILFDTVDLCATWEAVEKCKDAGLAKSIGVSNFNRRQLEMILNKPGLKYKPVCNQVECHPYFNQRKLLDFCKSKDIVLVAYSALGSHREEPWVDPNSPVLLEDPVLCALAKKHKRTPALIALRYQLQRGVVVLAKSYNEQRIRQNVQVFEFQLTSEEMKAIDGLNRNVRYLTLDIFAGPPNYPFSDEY
# Sequence of UniProt P09237 (whole entry, looked up): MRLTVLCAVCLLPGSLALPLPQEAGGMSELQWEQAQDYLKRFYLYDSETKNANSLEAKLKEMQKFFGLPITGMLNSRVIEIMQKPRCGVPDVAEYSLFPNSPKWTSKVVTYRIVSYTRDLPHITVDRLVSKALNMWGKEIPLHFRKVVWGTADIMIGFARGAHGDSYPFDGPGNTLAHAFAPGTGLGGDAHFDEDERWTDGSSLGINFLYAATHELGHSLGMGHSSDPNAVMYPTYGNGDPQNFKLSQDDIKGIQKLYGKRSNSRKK
SMILES,target,test,test system,conditions,how to read,inhibition
C[C@]12CC[C@@H]3c4ccc(O)c(Cl)c4CC[C@H]3[C@@H]1CCC2=O,AKR1C2,"enzyme activity, inhibitor, absorbance",,"10 µM, pH 9",,70%
Cc1ccc(N2CC3CCC(C2)N3C)cc1C(=O)N[C@H](C)c1cc(-c2cnn(C)c2)nc2ccccc12,"Caspase-3 (CASP3, Homo sapiens, UniProt P42574)",enzyme activity,,concentration not given,,no inhibition
O=C(O)/C=C/c1ccc(O)cc1,alpha-glucosidase,enzyme activity,,125 µg/mL,,51.1% and 53.4%
C[C@@](O)(C(F)F)[C@H](NC(=O)c1ccc(C#CC#CC2CC2)cc1)C(=O)NO,"Matrilysin (MMP7, Homo sapiens, UniProt P09237)","enzyme activity, inhibitor",,30 µM,,≤ 30%
COC(=O)N(C)[C@@H](Cc1ccccc1)C(=O)N[C@@H](Cc1ccccc1)C(=O)N[C@@H](CC1CCCCC1)C(=O)N[C@@H](CCCNC(=N)N)C(=O)N[C@@H](CC(C)C)C(=O)N[C@@H](CCCNC(=N)N)C(=O)N[C@@H](CCCNC(=N)N)C(=O)N[C@H](C)C(=O)N[C@@H](CCCNC(=N)N)C(=O)N1CCC[C@H]1C(=O)N[C@@H](CCCCN)C(N)=O,Oprk1,"adenylyl cyclase activity, agonist",CHO cells,10 µM,baseline: dynorphin A(1-13) amide,> 40%
O=c1c(Nc2ccc(Br)cc2)c(NC2CCN(Cc3ccccc3)CC2)c1=O,ache,"enzyme activity, inhibitor, Ellman",,25 µM,,42.9%
O=C(NCc1cc(F)ccc1F)c1cn(Cc2ccc(F)cc2)cc(O)c1=O,Tripartite terminase subunit 3 C-terminal nuclease domain,"endonuclease activity, inhibitor, ELISA",,20 µM,,6%
CC(C)C(=O)Nc1ccccc1-c1nn[nH]n1,"VIM-2 (Escherichia coli, UniProt Q5U7L7)","enzyme activity, inhibitor",,concentration not given,,no inhibition
C=C(C)[C@]12C[C@@H](C)[C@@]34O[C@](Cc5ccccc5)(O[C@@H]1[C@@H]3C=C(COC(=O)Cc1cc(I)c(O)c(OC)c1)C[C@]1(O)C(=O)C(C)=C[C@@H]41)O2,"TRPV1 (Homo sapiens, UniProt Q8NER1)","acid-evoked calcium influx, antagonist","HEK293, human","11.25 µM, pH 5",,64.4 ± 11.1%
C[C@@]12CC[C@H]3[C@@H](CCC4=CC(=O)C=C[C@@]43F)[C@@H]1CCC2=O,AKR1C2,"enzyme activity, inhibitor, absorbance",,"100 µM, pH 9",,75%
O=C(NCc1cccc(Cl)c1F)c1cn(Cc2ccc(F)cc2)cc(O)c1=O,Tripartite terminase subunit 3 C-terminal nuclease domain,"endonuclease activity, inhibitor, ELISA",,20 µM,,14%
CC(=O)NC(Cc1ccc(Br)c(Cl)c1)C(=O)N[C@@H](C)C(=O)N1CCC[C@H]1C(=O)N1CCC[C@H]1C(=O)N[C@@H](CCC(=O)O)C(=O)N[C@@H](Cc1c[nH]cn1)C(=O)N[C@@H](CO)C(=O)N[C@H](C(=O)N[C@@H](C)C(N)=O)[C@@H](C)OP(=O)(O)O (stereo partly drawn),"MAPKAPK2 (Homo sapiens, UniProt P49137)",,,10 µM,,0.34 ± 0.02%
Clc1ccc2nc3c(c(Nc4ccc5ccccc5n4)c2c1)CCCC3,ache,,,100 µM,,89.9 ± 2%
CC(C)[C@H]1NC(=O)C[C@H]2/C=C/CCSSC[C@@H](NC1=O)C(=O)N[C@H](Cc1cccc3ccccc13)C(=O)NCC(=O)O2,"Phosphatidylinositol 4,5-bisphosphate 3-kinase catalytic subunit alpha isoform, with p85 (PIK3CA, Homo sapiens, UniProt P42336)","enzyme activity, inhibitor, mobility shift",,10 µM,,60.4%
Cc1cccnc1Nc1c2c(nc3ccccc13)CCC(C)C2 (stereo not drawn),ache,"enzyme activity, inhibitor, Ellman",,100 µM,,> 90%
COc1cccc(CCNc2c(NC3CCN(Cc4ccccc4)CC3)c(=O)c2=O)c1,ache,"enzyme activity, inhibitor, Ellman",,12.5 µM,,45.7%
C[C@]12CCC[C@H]1[C@@H]1CCc3c(cc(Br)c(O)c3Br)[C@H]1CC2,"AKR1C1 (Homo sapiens, UniProt Q04828)","enzyme activity, inhibitor, absorbance",,"10 µM, pH 9",,33%
O=C(NCc1c(F)cccc1F)c1cn(Cc2ccc(F)cc2)cc(O)c1=O,Tripartite terminase subunit 3 C-terminal nuclease domain,"endonuclease activity, inhibitor, ELISA",,20 µM,,6%
COc1ccnc(Nc2c3c(nc4ccccc24)CCCC3)c1,ache,,,100 µM,,96.2 ± 4.11%
NCC(CCC(N)C(=O)O)CC1OC(n2cnc3c(N)ncnc32)C(O)C1O (stereo not drawn),"PRMT8 (Homo sapiens, UniProt Q9NR22)","enzyme activity, inhibitor",,20 µM,,> 50%
FC(F)(F)c1ccc(Nc2c3c(nc4ccccc24)CCCC3)cc1,ache,"enzyme activity, inhibitor, Ellman",,50 µM,,90.7%
CC(C)(C)c1ccc(C(=O)Nc2cc(Cl)c(Br)cc2C(=O)O)cc1,"Hexokinase-4 (GCK, Homo sapiens, UniProt P35557)","enzyme activity, inhibitor",,10 µM,,11.9%
Cc1ccnc(Nc2c3c(nc4ccccc24)CCCC3)c1,ache,"enzyme activity, inhibitor, Ellman",,100 µM,,69.9%
CN(C(=N)Nc1cccc2cc3ccccc3cc12)c1cccc(C(F)(F)F)c1,"NMDA receptor PCP site, rat","binding, inhibitor",brain membranes,"1.0 µM, together with: [3H]TCP",,-7.3%
S=C(NCc1ccccn1)NCc1ccccn1,"AMY2 (Sus scrofa, UniProt P00690)","enzyme activity, inhibitor",,125 µg/mL,,50%
CC(C)C[C@@H]1NC(=O)[C@@H](NC(=O)CN)CSSC[C@@H]2NC(=O)[C@@H]3CSSC[C@@H](C(=O)N[C@@H](CC(N)=O)C(=O)N[C@@H](Cc4ccccc4)C(=O)N[C@@H](CO)C(=O)N[C@@H](Cc4ccccc4)C(N)=O)NC(=O)[C@H](CC(C)C)NC(=O)[C@H](CCCCN)NC(=O)[C@H](Cc4ccccc4)NC(=O)[C@H](CC(C)C)NC(=O)[C@H](CCCCN)NC(=O)[C@H](CO)NC(=O)[C@H](CSSC[C@H](NC(=O)[C@H](CCCCN)NC(=O)[C@H](Cc4c[nH]c5ccccc45)NC(=O)[C@H](Cc4c[nH]c5ccccc45)NC(=O)[C@H](Cc4ccccc4)NC(=O)[C@H](CCC(=O)O)NC1=O)C(=O)N[C@@H](CC(N)=O)C(=O)N1CCC[C@H]1C(=O)N[C@@H](CC(N)=O)C(=O)N[C@@H](CC(=O)O)C(=O)N[C@@H](CC(=O)O)C(=O)N[C@@H](CCCCN)C(=O)N3)NC(=O)[C@H](CCCCN)NC(=O)[C@H](CC(C)C)NC(=O)[C@H](CCCCN)NC(=O)[C@@H]1CCCN1C(=O)[C@H](CCCNC(=N)N)NC2=O,"Piezo1 (Mus musculus, UniProt E2JF22)","mechanosensitive current, whole-cell patch clamp",HEK293 transfected,"4.0 µM, holding potential -60 mV",,58 ± 6%
CC(C)(C)c1ccc(Nc2c3c(nc4ccccc24)CCCC3)cc1,ache,"enzyme activity, inhibitor, Ellman",,100 µM,,65%
CCn1ccc(-c2cc(-c3cnn(C)c3)cc([C@@H](C)NC(=O)c3cc(OCCN(C)C)ccc3C)c2)n1,"USP7 (Homo sapiens, UniProt Q93009)",Ub-AMC hydrolysis,,up to 40 µM,,no inhibition
C[C@@]12CC[C@@H]3c4cc(Cl)c(O)c(Cl)c4CC[C@H]3[C@@H]1CCC2=O,AKR1C2,"enzyme activity, inhibitor, absorbance",,"100 µM, pH 9",,81.5%
Cc1ccc(Nc2c(NC3CCN(Cc4ccccc4)CC3)c(=O)c2=O)cc1,ache,"enzyme activity, inhibitor, Ellman",,25 µM,,69.5%
CC(C)c1ccc(C(=O)Nc2ccc(CN3CCN(C)CC3)c(C(F)(F)F)c2)cc1C#Cc1cnc2cccnn12,"RIPK1 (Homo sapiens, UniProt Q13546, L157F/M92T)","autophosphorylation, inhibitor",,"concentration not given, FLAG-tagged, residues 1-327",,inhibited
COc1ccnc(Nc2c3c(nc4cc(C)ccc24)CCCC3)c1,ache,"enzyme activity, inhibitor, Ellman",,100 µM,,> 90%
COc1ccc2cc(/C=C/c3cc[n+](Cc4ccc(F)cc4)cc3)ccc2c1,"Amyloid-beta precursor protein, amyloid-beta 1-42 peptide (Rattus norvegicus, UniProt P08592)","Abeta42 self-aggregation, thioflavin T",,10 µM,,85%
Cc1ccnc(Nc2c3c(nc4ccccc24)CCC(C)C3)c1 (stereo not drawn),ache,"enzyme activity, inhibitor, Ellman",,50 µM,,79.5%
CC(C)(COP(=O)(O)OP(=O)(O)OC[C@H]1O[C@@H](n2cnc3c(N)ncnc32)[C@H](O)[C@@H]1OP(=O)(O)O)[C@@H](O)C(=O)NCCC(=O)NCCSCCC(=O)N[C@@H](CO)C(=O)NCC(=O)N[C@@H](CCCNC(=N)N)C(=O)NCC(=O)N[C@@H](CCCCN)C(N)=O,"KAT8 (Homo sapiens, UniProt Q9H7Z6)","enzyme activity, inhibitor",,1 µM,,10 to 40%
C=CCOc1ccc(C[C@H](NC(C)=O)C(=O)N[C@@H](Cc2ccccc2)C(=O)N[C@@H](Cc2ccccc2)C(=O)N[C@@H](CCCNC(=N)N)C(=O)N[C@@H](CC(C)C)C(=O)N[C@@H](CCCNC(=N)N)C(=O)N[C@@H](CCCNC(=N)N)C(=O)N[C@H](C(=O)N[C@@H](CCCNC(=N)N)C(=O)N2CCC[C@H]2C(=O)N[C@@H](CCCCN)C(N)=O)[C@@H](C)CC)cc1,Oprk1,GTPγS binding,,"10 µM, cell membranes",,-2.5%

# For quick reference, copied from above:
SMILES,target,test,test system,conditions,how to read,inhibition
C[C@@]12CC[C@H]3[C@@H](CCC4=CC(=O)C=C[C@@]43F)[C@@H]1CCC2=O,AKR1C2,"enzyme activity, inhibitor, absorbance",,"100 µM, pH 9",,75%
CC(C)(C)c1ccc(Nc2c3c(nc4ccccc24)CCCC3)cc1,ache,"enzyme activity, inhibitor, Ellman",,100 µM,,65%
Cc1cccnc1Nc1c2c(nc3ccccc13)CCC(C)C2 (stereo not drawn),ache,"enzyme activity, inhibitor, Ellman",,100 µM,,> 90%
S=C(NCc1ccccn1)NCc1ccccn1,"AMY2 (Sus scrofa, UniProt P00690)","enzyme activity, inhibitor",,125 µg/mL,,50%
